Experimental data of several laboratories.
Parts stem from different laboratories: compare values within a part only. Values joined by “and” are separate records of one study, mostly repeats; a detail may differ.
Sequence of UniProt Q9Y5N1 (whole entry, looked up): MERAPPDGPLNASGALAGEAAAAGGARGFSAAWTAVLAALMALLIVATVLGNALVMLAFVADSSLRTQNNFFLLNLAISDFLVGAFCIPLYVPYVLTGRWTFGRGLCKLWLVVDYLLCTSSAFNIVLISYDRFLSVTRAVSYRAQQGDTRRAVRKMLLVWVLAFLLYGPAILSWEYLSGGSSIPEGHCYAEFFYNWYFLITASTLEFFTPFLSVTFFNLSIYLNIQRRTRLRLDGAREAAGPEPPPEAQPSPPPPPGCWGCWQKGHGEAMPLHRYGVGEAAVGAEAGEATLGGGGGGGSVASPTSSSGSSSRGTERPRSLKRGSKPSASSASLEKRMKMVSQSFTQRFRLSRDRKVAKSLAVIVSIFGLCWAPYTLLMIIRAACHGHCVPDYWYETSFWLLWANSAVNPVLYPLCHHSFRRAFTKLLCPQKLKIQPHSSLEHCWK
Sequence of UniProt P35348 (whole entry, looked up): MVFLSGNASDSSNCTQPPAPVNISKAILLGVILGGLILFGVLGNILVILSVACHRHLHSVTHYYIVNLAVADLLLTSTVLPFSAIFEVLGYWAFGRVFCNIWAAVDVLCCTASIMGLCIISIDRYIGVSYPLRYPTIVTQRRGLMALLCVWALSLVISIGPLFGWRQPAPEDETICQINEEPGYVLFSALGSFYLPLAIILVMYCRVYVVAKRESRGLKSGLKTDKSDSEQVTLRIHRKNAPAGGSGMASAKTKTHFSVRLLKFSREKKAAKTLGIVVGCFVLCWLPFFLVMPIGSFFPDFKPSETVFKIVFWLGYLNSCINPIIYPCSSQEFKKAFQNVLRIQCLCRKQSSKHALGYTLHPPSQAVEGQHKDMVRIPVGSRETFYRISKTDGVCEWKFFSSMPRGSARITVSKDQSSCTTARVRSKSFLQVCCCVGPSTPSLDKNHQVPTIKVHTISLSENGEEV
Sequence of UniProt P35368 (whole entry, looked up): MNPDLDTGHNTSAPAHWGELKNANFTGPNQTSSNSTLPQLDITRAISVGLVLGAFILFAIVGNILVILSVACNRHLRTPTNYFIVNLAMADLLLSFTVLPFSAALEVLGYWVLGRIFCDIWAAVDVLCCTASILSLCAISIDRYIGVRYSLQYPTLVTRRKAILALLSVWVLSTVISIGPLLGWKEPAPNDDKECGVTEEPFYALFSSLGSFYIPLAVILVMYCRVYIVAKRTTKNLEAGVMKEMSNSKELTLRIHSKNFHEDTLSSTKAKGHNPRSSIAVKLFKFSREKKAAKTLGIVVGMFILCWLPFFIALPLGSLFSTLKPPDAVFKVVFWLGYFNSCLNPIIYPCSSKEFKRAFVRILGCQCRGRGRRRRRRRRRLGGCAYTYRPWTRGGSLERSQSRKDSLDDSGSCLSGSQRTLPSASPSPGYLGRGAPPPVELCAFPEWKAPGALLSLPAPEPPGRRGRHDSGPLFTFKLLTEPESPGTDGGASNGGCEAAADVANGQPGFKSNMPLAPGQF
Sequence of UniProt P35462 (whole entry, looked up): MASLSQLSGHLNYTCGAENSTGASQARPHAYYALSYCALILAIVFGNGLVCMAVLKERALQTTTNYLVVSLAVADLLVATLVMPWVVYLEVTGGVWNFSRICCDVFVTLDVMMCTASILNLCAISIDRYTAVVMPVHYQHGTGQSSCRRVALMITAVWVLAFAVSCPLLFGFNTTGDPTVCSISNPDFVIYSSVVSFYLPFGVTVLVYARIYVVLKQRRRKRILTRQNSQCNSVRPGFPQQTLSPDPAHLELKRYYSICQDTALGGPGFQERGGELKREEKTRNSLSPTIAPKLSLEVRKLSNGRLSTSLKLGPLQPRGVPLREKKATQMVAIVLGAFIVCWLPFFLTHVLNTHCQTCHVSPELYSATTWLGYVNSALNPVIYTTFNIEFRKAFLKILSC
Sequence of UniProt P21917 (whole entry, looked up): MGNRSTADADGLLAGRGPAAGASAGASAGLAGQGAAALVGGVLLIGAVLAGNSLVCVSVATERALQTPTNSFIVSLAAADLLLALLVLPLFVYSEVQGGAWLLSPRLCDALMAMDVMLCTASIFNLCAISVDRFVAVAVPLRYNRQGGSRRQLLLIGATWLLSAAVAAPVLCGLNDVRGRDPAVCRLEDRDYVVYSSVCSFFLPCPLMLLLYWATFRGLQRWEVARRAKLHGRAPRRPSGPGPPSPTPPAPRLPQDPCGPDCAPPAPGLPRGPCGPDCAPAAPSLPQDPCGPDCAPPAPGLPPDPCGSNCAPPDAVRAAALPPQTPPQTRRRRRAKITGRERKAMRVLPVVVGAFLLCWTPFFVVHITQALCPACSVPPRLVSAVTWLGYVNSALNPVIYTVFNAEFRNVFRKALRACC
Sequence of UniProt P50406 (whole entry, looked up): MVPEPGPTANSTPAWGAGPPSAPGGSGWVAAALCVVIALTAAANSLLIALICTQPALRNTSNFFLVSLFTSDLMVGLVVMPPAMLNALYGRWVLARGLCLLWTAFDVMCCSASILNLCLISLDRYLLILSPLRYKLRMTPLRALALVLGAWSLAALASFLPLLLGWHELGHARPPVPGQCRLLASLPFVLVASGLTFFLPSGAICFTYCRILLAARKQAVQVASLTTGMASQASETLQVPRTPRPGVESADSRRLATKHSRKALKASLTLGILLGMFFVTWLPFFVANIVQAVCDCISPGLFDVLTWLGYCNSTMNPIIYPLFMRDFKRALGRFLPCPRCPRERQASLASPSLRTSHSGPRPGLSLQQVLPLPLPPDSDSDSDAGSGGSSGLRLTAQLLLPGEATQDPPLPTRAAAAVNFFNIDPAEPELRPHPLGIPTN
Sequence of UniProt P08588 (whole entry, looked up): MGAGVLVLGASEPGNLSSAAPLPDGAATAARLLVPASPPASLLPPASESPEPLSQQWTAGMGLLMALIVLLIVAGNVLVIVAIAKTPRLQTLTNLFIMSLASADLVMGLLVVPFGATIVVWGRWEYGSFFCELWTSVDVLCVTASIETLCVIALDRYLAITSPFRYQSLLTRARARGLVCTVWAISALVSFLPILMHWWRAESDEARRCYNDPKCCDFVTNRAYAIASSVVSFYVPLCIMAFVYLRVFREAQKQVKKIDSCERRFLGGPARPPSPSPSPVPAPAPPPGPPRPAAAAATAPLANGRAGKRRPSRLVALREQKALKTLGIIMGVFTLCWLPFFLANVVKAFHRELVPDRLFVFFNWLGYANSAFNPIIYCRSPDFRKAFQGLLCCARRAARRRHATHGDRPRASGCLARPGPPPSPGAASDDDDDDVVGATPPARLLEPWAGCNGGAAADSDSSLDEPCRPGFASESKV
Sequence of UniProt P08172 (whole entry, looked up): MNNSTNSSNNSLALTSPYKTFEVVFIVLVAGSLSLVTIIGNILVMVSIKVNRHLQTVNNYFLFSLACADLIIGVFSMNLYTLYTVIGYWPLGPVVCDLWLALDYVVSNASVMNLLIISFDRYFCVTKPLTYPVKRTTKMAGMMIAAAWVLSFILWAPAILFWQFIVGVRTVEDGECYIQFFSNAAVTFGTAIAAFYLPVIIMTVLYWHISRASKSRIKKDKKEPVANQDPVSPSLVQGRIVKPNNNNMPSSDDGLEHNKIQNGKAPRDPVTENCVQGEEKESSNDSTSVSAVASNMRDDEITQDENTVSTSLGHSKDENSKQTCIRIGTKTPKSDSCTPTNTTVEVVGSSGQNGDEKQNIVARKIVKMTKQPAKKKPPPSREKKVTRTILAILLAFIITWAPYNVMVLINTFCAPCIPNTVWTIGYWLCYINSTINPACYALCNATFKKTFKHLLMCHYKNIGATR
Sequence of UniProt P25100 (whole entry, looked up): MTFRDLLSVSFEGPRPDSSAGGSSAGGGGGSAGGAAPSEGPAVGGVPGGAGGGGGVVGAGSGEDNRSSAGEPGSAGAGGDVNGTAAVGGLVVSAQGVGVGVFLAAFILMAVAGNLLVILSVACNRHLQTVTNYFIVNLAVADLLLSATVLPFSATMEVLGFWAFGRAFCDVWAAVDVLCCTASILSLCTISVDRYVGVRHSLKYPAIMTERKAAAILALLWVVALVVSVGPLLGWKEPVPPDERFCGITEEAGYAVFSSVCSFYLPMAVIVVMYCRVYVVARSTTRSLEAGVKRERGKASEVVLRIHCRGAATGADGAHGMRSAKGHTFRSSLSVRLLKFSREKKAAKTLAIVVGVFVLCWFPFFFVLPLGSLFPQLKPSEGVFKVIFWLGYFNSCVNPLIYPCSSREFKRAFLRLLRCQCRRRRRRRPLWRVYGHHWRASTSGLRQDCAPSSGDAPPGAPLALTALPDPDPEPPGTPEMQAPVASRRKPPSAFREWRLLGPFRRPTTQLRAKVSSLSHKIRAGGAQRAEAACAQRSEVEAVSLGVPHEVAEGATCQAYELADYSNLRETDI
Sequence of UniProt P13945 (whole entry, looked up): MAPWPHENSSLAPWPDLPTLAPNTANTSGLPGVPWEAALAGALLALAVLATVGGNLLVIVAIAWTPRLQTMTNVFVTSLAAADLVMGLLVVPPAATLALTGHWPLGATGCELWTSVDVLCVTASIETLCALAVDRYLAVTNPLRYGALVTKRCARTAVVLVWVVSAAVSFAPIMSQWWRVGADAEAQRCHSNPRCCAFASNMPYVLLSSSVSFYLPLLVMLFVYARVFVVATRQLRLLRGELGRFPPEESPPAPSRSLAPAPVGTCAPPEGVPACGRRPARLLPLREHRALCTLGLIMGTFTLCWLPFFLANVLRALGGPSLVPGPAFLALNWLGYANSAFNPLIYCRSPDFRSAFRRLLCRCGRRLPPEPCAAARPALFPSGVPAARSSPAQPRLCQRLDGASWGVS

Set 1 — cell line: mouse MPNST tumor cells; technique: high-content immunofluorescence imaging; item: nuclear SOX9; concentration: 10 µM; time: 12 h; setting: mean of 2 replicates; reference: DMSO control; direction: higher = more nuclear SOX9; endpoint: nuclear SOX9 intensity
Cc1ccc(-c2cc(C(F)(F)F)nn2-c2ccc(S(N)(=O)=O)cc2)cc1: 100 % of DMSO and 102 % of DMSO
Oc1c(CN2CCCC2)cc(COCc2ccccc2)c2cccnc12: 207 % of DMSO
CCNC(=O)CCC/C=C\C[C@@H]1[C@@H](/C=C/[C@@H](O)CCc2ccccc2)[C@H](O)C[C@@H]1O: 97 % of DMSO
COc1ccc(-c2cc(=O)c3c(O)cc(O[C@@H]4O[C@H](CO[C@@H]5O[C@@H](C)[C@H](O)[C@@H](O)[C@H]5O)[C@@H](O)[C@H](O)[C@H]4O)cc3o2)cc1O: 96.9 % of DMSO

Set 2 — host: mouse; matrix: microsomes or S9; concentration: 2 µM; time: 0.5 h; endpoint: remaining compound
CCOc1cc(=O)n2c(c1C(=O)NCc1ccccc1Cl)CCCCC2: 0.5%
COC(=O)C1(C(=O)OC)C(CC(=O)c2ccc(C)cc2)c2cc(N(C)C)ccc2C(c2ccccc2)N1S(=O)(=O)c1ccc(C)cc1 (stereo not shown): 5.37%
CC(C)N1N=C(c2nc(-c3ccsc3)no2)CCC1=O: 8.12%
Cc1ccc(S(=O)(=O)NC2c3cccc4cccc(c34)C2Sc2n[nH]c(N)n2)cc1 (stereo not shown): 1.16%
O=C(Nc1ccc2nc(N3CCC(N4CCCCC4)CC3)cc(C(=O)O)c2c1)c1ccccc1F: > 100%
Brc1ccc(-c2c[nH]c(CNc3nncn3-c3ccccc3)n2)cc1: 8.99%
NC1=NN(c2ccc(Oc3ccccc3)c(S(=O)(=O)O)c2)C(=O)C1: > 100%

Set 3 — observed: cell-free assay; concentration: 10 µM; endpoint: inhibition
Structure (SMILES): CN(c1ccnc(CNc2nc(Nc3ccc4c(c3)CC(=O)N4)ncc2C(F)(F)F)n1)S(C)(=O)=O
ADRA1B (Homo sapiens, UniProt P35368): 0.5%
CHRM2 (Homo sapiens, UniProt P08172): -2.08%
DRD3 (Homo sapiens, UniProt P35462): -11.8%
HTR6 (Homo sapiens, UniProt P50406): 11.1%
ADRB3 (Homo sapiens, UniProt P13945): 1.64%
HRH3 (Homo sapiens, UniProt Q9Y5N1): 12.9%
ADRB1 (Homo sapiens, UniProt P08588): 16.4%
DRD4 (Homo sapiens, UniProt P21917): 2.34%
ADRA1A (Homo sapiens, UniProt P35348): -3.55%
ADRA1D (Homo sapiens, UniProt P25100): 15.9%

Single results of other studies
CC(C)(C)c1cnc(CSc2cnc(NC(=O)C3CCNCC3)s2)o1 — tumour volume (nude mouse, HH xenograft; dose not given, day 0): 0 mm³

Repeated from above (set 2):
Cc1ccc(S(=O)(=O)NC2c3cccc4cccc(c34)C2Sc2n[nH]c(N)n2)cc1 (stereo not shown): 1.16%
O=C(Nc1ccc2nc(N3CCC(N4CCCCC4)CC3)cc(C(=O)O)c2c1)c1ccccc1F: > 100%
Brc1ccc(-c2c[nH]c(CNc3nncn3-c3ccccc3)n2)cc1: 8.99%
